Measurements from different studies.
Each line is one published result; not all experiments were run side by side. ± gives the spread as reported.

SMILES | cell line | assay | setting | scale | inhibition
CC(C)C[C@H](NC(=O)[C@H](CO)NC(=O)[C@H](CCCNC(=N)N)NC(=O)[C@H](CCCCN)NC(=O)[C@@H](NC(=O)[C@@H](NC(=O)CNC(=O)[C@H](CCCNC(=N)N)NC(=O)[C@H](Cc1c[nH]cn1)NC(=O)[C@H](Cc1c[nH]c2ccccc12)NC(=O)[C@H](Cc1ccccc1)NC(=O)[C@H](Cc1c[nH]cn1)NC(=O)[C@H](Cc1ccc(O)cc1)NC(=O)[C@@H](N)Cc1ccc(O)cc1)C(C)C)[C@@H](C)O)C(=O)N[C@@H](CO)C(=O)N1CCC[C@H]1C(=O)N[C@@H](Cc1c[nH]cn1)C(=O)N[C@@H](CCCNC(=N)N)C(=O)N1CCC[C@H]1C(=O)N[C@@H](CCCNC(=N)N)C(=O)N[C@@H](Cc1c[nH]cn1)C(=O)N[C@@H](CO)C(=O)N[C@@H](CCCNC(=N)N)C(=O)O | THP-1 | TNF-α secretion, ELISA | 5 µM, 4 to 12 h, added: LPS | – | 28%
COc1cc(OC)cc(C(O)c2c[nH]c3ncc(C(F)(F)F)cc23)c1 (stereo not shown) | 4T1 | cell growth or viability, MTT | 10 µM, 72 h | – | 23%
CCNC(=S)N/N=C(\C)c1ccccn1 | HEp-2 | cell growth or viability, SRB | 100 µg/mL, 48 h | – | 69.5%
O=C(COc1ccccc1/C=N/Nc1nc(-c2ccc(Br)cc2)cs1)N1CCN(C(=O)COc2ccccc2/C=N/Nc2nc(-c3ccc(Br)cc3)cs2)CC1 | HDF | cell growth or viability, SRB | 100 µM, 48 h | – | 54.8%
CC(C)(C)ONc1nc(Nc2ccnc(C(F)(F)F)c2)nc(-c2cccc(C(F)(F)F)n2)n1 | U-87 MG IDH2 R140Q | 2-HG production | 0.2 µM, 72 h | – | 78.2%
CCCN(c1ccc(C(=O)NCCC(=O)O)cc1)S(=O)(=O)c1cc(C)c(-c2ccc(C(C)(C)C)cc2)c(C)c1 | mouse primary hepatocytes | glucose production | 20 µM, gluconeogenic substrates, added: glucagon 10 nM | – | 74%
COc1cc(Cc2c[nH]c3ncc(C(F)(F)F)cc23)cc(OC)c1 | 4T1 | cell migration | 30 µM, 24 h | – | 93.8%
C/C(=N\N=c1/[nH]c(-c2ccccc2)cs1)c1ccccn1 | HEp-2 | cell growth or viability, SRB | 100 µg/mL, 48 h | – | 64.3%
FC(F)(F)c1cccc(Cc2c[nH]c3ncc(C(F)(F)F)cc23)c1 | 4T1 | cell growth or viability, MTT | 10 µM, 72 h | – | 26%
COc1cc(/C=C/C(=O)/C=C(O)/C=C/c2ccc(OCC(=O)N3CCOCCOCCOCC3)c(OC)c2)ccc1OCC(=O)N1CCOCCOCCOCC1 | U-251 | cell growth or viability, SRB | 5 µM | – | 11.7%
O=C(COc1ccc(/C=N/Nc2nc(-c3ccc(Br)cc3)cs2)cc1)N1CCN(C(=O)COc2ccc(/C=N/Nc3nc(-c4ccc(Br)cc4)cs3)cc2)CC1 | HDF | cell growth or viability, SRB | 100 µM, 48 h | – | 58.4%
COc1ccc(C2=Nn3c(NN=C4C(=O)N(C)c5ccc(Br)cc54)nnc3SC2)cc1 | M14 | cell growth or viability, SRB | 10 µM | – | 33%
CCC12CCc3c(c4ccccc4n3C)CCN(CC3OC31)C2 (stereo not shown) | BV-2 | NO production | 25 µM, 1 h, 24 h stimulation, added: LPS 800 ng/mL | reference: LPS control | 73.8 ± 0.1%

A few entries again:
SMILES | cell line | assay | setting | scale | inhibition
COc1cc(Cc2c[nH]c3ncc(C(F)(F)F)cc23)cc(OC)c1 | 4T1 | cell migration | 30 µM, 24 h | – | 93.8%
O=C(COc1ccccc1/C=N/Nc1nc(-c2ccc(Br)cc2)cs1)N1CCN(C(=O)COc2ccccc2/C=N/Nc2nc(-c3ccc(Br)cc3)cs2)CC1 | HDF | cell growth or viability, SRB | 100 µM, 48 h | – | 54.8%
